# Measured values pooled from the literature.
# Each line is one published result; not all experiments were run side by side.
# Cell line: HT-29
Structure (SMILES),read-out,technique,time,IC50 [µM]
CNS(=O)(=O)Nc1nccc(Cc2c(C)c3ccc(Oc4ncccc4F)cc3oc2=O)c1F,cell viability,,7 days,0.00682
CO[C@@H](C[C@H]1C(C)=CC[C@@H]2[C@]3(C)C[C@H](O[C@@H]4O[C@@H](C)[C@H](OC(=O)c5cccc(O)c5)[C@@H](O[C@@H]5O[C@H](CO)[C@@H](O)[C@H](O)[C@H]5NC(C)=O)[C@H]4O)[C@@H](O)C(C)(C)[C@H]3CC[C@]21C)[C@H](N)C(=O)O,cell growth or viability,CCK-8,72 h,6.19
Cc1ccc([N+](=O)[O-])cc1S(=O)(=O)N(C)/N=C/c1cnc2ccc(Br)cn12,cell viability,MTS,,0.087
CCCCCCCCCCCC(=O)Oc1c(C)c(OC)c2c(/C=C/c3ccccc3)c(CCCCCCCCCC)c(=O)oc2c1C,cell growth or viability,SRB,72 h,> 50
O=C([O-])CC(=O)[O-].[W+4].c1cc[cH-]c1.c1cc[cH-]c1,cell growth or viability,MTT,,790
COc1c(C)c(OS(=O)(=O)c2ccccc2)c(C)c(OS(=O)(=O)c2ccccc2)c1C(=O)/C=C/c1ccccc1,cell growth or viability,SRB,72 h,> 50
CCc1occc(=O)c1[O-].[Cl-].[W+4].c1cc[cH-]c1.c1cc[cH-]c1,cell growth or viability,MTT,,350
CCCCCCCCCCCC(=O)Oc1c(C)c(OC)c2c(c1C)OC(=O)[C@@H](CCCCCCCCCC)[C@]2(O)/C=C/c1ccccc1 (relative stereo),cell growth or viability,SRB,72 h,> 50
O=C1Nc2ccccc2C1(c1c[nH]c2ccccc12)c1c[nH]c2ccccc12,cell growth or viability,ATP luminescence,24 h,12.4
COc1cc(-n2cc3cc(F)cc(C(N)=O)c3n2)cc(Cl)c1C1CC(O)(CCO)Cc2ccccc21 (stereo not shown),cell growth or viability,MTT,72 h,0.13
CO[C@@H](C[C@H]1C(C)=CC[C@@H]2[C@]3(C)C[C@H](O[C@@H]4O[C@@H](C)[C@H](O)[C@@H](O)[C@H]4O)[C@@H](O)C(C)(C)[C@H]3CC[C@]21C)[C@H](N)C(=O)O,cell growth or viability,CCK-8,72 h,> 10
CC(C)c1ccc(N(C)c2ccc3c(c2)OCC[C@H]3CNc2cnccc2C(=O)O)cc1,cell growth or viability,MTS,7 days,0.0235
CCCCCC(=O)Oc1c(C)c(OC)c2c(c1C)OC(=O)[C@@H](CCCC)[C@]2(O)/C=C/c1ccccc1 (relative stereo),cell growth or viability,SRB,72 h,> 50

# Excerpt of the above:
Structure (SMILES),read-out,technique,time,IC50 [µM]
CC(C)c1ccc(N(C)c2ccc3c(c2)OCC[C@H]3CNc2cnccc2C(=O)O)cc1,cell growth or viability,MTS,7 days,0.0235
